Measurements of several laboratories.
Each numbered part is a random draw from the data of one study; scales do not carry over between parts. Changes are numbered by the printed parent chain.

Series 1
Target: tungstate, free oxyanion
Method: microfluidic competitive inhibition
Matrix: in vitro, cell-free expressed
Concentration: not given
Notes: derived from inhibition constants, unchanged parent 2230 nM
Direction: lower = stronger binding
Starting sequence: PafA, mature enzyme, eGFP fusion (Elizabethkingia meningoseptica, UniProt Q9KJX5); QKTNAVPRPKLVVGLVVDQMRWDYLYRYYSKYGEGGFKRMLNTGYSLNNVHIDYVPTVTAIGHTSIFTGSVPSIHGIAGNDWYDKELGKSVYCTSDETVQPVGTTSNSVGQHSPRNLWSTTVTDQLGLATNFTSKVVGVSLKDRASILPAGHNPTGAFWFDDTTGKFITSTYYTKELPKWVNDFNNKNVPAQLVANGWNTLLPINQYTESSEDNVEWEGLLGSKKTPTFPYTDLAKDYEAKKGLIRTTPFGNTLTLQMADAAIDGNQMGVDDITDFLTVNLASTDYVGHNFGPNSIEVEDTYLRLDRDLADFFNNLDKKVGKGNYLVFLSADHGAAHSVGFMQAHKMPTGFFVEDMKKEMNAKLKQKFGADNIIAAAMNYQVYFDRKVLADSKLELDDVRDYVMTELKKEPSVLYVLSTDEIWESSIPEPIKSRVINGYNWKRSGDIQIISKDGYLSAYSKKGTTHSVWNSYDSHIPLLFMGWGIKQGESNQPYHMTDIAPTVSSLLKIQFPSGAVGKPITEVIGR
Change	oxyanion analog dissociation constant
G156A	1.71 µM
D453G	1.92 µM
V91G	10.7 µM
M347G	899 nM
L15V	2.67 µM
D498V	1.53 µM
S457V	2.81 µM
Y380G	2.14 µM

Series 2
Target: CCNF, cyclin fold, Cln2 fusion (human)
Method: yeast growth competition, sequencing
Matrix: yeast
Notes: strong parent motif
Relative to: not given
Direction: higher = stronger binding
Starting sequence: viral docking peptide; KGVKRKLFAEDSS
Change	normalised enrichment score
KGVKRKWFAEDSS [L7W]	0.134
KGVFRKLFAEDSS [K4F]	6.67
KGVKRKLFAEKSS [D11K]	7.64
KGVKRKIFAEDSS [L7I]	4.8
KHVKRKLFAEDSS [G2H]	8.23
KGHKRKLFAEDSS [V3H]	2.46
KGVRRKLFAEDSS [K4R]	8.92
KGVKRKLFAEDDS [S12D]	7.74

Series 3
Target: UDP-N-acetylglucosamine--peptide N-acetylglucosaminyltransferase 110 kDa subunit (OGT, Homo sapiens, UniProt O15294)
Observed: binding
Method: phage display NGS
Molecule type: peptide
Concentration: concentration not given
Notes: normalized abundance
Relative to: input library
Target sequence (O15294 1-1046): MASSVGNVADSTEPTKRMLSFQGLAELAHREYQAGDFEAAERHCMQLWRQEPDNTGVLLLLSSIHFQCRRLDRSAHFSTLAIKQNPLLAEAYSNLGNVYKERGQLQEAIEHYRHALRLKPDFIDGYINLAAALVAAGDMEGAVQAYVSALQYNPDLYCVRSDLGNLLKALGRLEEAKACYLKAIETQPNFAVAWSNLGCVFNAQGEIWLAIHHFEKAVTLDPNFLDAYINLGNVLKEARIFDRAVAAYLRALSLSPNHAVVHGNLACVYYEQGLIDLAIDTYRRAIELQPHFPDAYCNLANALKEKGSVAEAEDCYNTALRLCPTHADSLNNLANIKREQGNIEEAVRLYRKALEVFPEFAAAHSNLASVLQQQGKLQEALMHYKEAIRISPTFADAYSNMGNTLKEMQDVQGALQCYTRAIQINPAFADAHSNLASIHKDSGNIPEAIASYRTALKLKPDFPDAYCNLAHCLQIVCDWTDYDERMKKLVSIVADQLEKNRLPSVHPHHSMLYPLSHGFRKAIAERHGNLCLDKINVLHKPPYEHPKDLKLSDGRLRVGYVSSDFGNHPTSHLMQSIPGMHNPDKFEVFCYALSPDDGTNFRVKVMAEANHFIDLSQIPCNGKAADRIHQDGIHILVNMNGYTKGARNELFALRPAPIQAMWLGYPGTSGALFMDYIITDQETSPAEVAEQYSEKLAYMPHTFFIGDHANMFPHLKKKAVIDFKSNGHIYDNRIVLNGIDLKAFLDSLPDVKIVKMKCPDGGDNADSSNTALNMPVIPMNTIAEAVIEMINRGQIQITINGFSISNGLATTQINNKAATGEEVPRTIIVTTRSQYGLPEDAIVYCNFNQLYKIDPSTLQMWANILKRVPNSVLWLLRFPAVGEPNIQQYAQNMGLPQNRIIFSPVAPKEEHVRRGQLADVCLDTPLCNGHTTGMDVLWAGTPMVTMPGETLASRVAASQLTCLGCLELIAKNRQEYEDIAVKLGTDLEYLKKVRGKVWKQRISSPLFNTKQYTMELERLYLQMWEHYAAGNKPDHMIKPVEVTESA
Molecule	enrichment fold change
HFKWYGWSEMDQHTH	19.5
RPITSAYQPSYQIVL	4.38
TSATSYLPYYTIYPG	9.09
HSWHYYHIEHTAAHE	6.21
HVTHMHLHRQSDGI	7.84
QMEYYPQYQLRYMQV	2.8
HSWQHHHIMYEVGEG	10
VPYKHWHVHRGDDHF	6.35

Other studies, line by line
Structure (SMILES)	target	test	conditions	measurement	value
C[C@@H]1CN(c2cc(-c3nn(C)c4ccc(OC5(C)CC5)cc34)ncn2)C[C@H](C)O1	Calcium-dependent protein kinase 1 (CDPK1, Plasmodium falciparum, UniProt P62344)	cell-free assay, competition with immobilised ligand	1 µM	remaining binding	83%

Excerpt of the above (series 3):
Molecule	enrichment fold change
VPYKHWHVHRGDDHF	6.35
HFKWYGWSEMDQHTH	19.5
HSWQHHHIMYEVGEG	10
